# Experimental data of several laboratories.
# Each line is one published result; not all experiments were run side by side. Several values in a cell are separate wells, animals, samples, runs or records.
Compound,test,test system,setting,scale,quantity,value
Cc1noc(C)c1Cn1cc(N2C(=O)CN(Cc3cccc(O[C@@H]4O[C@H](C(=O)O)[C@@H](O)[C@H](O)[C@H]4O)c3)C2=O)cn1,,"Sprague-Dawley rat, male","oral, 100 mg/kg of parent drug, 2 h",,plasma concentration,7870 ng/mL
Cc1cc(C(=O)NC(C)(C)CO)cc(C)n1,LC-MS metabolite profiling,"Sprague-Dawley rat, both sexes, plasma","oral, 100 mg/kg of parent drug, 1 (unit not given)",higher = more metabolite,plasma peak area,182000 a.u.
CNc1cc(C)c(C(N)=O)cn1,,"Han Wistar rats, male, plasma","oral, 30 mg/kg, 24.0 h",,plasma concentration,20.8 nM
CCCN(C)c1cc(C(F)(F)F)nc(SCCC(=O)NCc2ccco2)n1,,"Wistar rat, plasma","intraperitoneal, 25 mg/kg, 2 h post-dose",relative to: vehicle control,plasma creatine kinase,no effect
COc1ccc(C(N)=O)cn1,,"Han Wistar rats, male, plasma","oral, 30 mg/kg, 2.00 h",,plasma concentration,33000 nM
CC[C@H](C)[C@H](NC(=O)[C@H](Cc1ccc(O)cc1)NC(=O)[C@@H](NC(=O)[C@H](CCCNC(=N)N)NC(=O)[C@@H](N)CC(=O)O)C(C)C)C(=O)N[C@@H](Cc1c[nH]cn1)C(=O)N1CCC[C@H]1C(=O)O,LC-MS/MS,"Sprague-Dawley rat, both sexes, plasma","subcutaneous, 10 mg/kg/day, day 27, 0.5 h, 30 min",,plasma concentration,98.1 ng/mL
CNc1cc(N)c(C(N)=O)c[n+]1C,"substrate, refers to: methylated product","rats, plasma","oral, 30 mg/kg, 8.00 h",,plasma concentration of product,191 nM and 189 nM
Cc1cc(C(=O)NC(C)(C)C(=O)O)cc(C)n1,LC-MS metabolite profiling,"Sprague-Dawley rat, both sexes, plasma","oral, 100 mg/kg of parent drug, 0.5 (unit not given)",higher = more metabolite,plasma peak area,59200 a.u.
Cc1noc(C)c1Cn1cc(N2C(=O)CN(Cc3cccc(OS(=O)(=O)O)c3)C2=O)cn1,,"rat Sprague-Dawley male, plasma","intravenous, 1 mg/kg of parent drug, 2 h",,plasma concentration,439 ng/mL
O=C(NS(=O)(=O)c1cccs1)c1cc2ccccc2n1Cc1ccc(Br)c2ccccc12,,"Sprague-Dawley rat, male","intravenous, dose not given, 8 h",,plasma concentration,3.23 ng/mL

# Excerpt of the above:
Compound,test,test system,setting,scale,quantity,value
CNc1cc(N)c(C(N)=O)c[n+]1C,"substrate, refers to: methylated product","rats, plasma","oral, 30 mg/kg, 8.00 h",,plasma concentration of product,191 nM and 189 nM
Cc1cc(C(=O)NC(C)(C)C(=O)O)cc(C)n1,LC-MS metabolite profiling,"Sprague-Dawley rat, both sexes, plasma","oral, 100 mg/kg of parent drug, 0.5 (unit not given)",higher = more metabolite,plasma peak area,59200 a.u.
